Measured values collected from several papers.
Each numbered part is a random draw from the data of one study; scales do not carry over between parts.
Sequence of UniProt P22455 (whole entry, looked up): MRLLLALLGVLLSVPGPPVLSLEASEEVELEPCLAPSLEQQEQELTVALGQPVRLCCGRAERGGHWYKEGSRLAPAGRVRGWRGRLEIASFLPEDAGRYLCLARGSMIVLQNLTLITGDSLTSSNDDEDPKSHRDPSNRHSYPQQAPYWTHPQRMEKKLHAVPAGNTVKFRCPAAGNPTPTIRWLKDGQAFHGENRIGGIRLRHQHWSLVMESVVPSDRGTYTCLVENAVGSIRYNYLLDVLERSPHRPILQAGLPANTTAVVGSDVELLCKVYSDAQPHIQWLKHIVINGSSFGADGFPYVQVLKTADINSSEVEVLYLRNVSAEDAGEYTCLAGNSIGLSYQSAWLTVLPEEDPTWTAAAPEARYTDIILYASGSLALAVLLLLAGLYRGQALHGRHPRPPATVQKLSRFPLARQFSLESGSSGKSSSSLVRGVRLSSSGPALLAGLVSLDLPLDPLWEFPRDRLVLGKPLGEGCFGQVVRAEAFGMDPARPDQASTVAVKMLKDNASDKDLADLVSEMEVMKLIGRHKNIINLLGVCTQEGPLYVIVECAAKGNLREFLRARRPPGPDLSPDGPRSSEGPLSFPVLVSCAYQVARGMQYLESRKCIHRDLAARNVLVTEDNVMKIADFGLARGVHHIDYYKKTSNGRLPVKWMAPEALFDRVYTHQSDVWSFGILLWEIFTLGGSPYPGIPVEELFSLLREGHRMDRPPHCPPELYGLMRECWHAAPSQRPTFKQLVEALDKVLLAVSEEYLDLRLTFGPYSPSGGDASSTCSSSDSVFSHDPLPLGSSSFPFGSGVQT
Sequence of UniProt O00141 (whole entry, looked up): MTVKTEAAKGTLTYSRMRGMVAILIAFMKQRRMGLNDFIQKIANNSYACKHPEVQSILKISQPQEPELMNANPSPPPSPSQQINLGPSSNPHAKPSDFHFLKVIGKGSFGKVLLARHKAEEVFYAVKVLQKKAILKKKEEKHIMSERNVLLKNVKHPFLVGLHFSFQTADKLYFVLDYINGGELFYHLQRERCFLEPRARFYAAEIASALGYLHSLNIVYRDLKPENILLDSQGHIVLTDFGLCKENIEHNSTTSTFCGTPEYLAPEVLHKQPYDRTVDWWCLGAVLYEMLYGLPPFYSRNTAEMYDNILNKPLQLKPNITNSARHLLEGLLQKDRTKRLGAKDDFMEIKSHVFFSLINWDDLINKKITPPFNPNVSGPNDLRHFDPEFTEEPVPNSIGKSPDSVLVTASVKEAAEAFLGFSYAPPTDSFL
Sequence of UniProt P15056 (whole entry, unmodified, looked up): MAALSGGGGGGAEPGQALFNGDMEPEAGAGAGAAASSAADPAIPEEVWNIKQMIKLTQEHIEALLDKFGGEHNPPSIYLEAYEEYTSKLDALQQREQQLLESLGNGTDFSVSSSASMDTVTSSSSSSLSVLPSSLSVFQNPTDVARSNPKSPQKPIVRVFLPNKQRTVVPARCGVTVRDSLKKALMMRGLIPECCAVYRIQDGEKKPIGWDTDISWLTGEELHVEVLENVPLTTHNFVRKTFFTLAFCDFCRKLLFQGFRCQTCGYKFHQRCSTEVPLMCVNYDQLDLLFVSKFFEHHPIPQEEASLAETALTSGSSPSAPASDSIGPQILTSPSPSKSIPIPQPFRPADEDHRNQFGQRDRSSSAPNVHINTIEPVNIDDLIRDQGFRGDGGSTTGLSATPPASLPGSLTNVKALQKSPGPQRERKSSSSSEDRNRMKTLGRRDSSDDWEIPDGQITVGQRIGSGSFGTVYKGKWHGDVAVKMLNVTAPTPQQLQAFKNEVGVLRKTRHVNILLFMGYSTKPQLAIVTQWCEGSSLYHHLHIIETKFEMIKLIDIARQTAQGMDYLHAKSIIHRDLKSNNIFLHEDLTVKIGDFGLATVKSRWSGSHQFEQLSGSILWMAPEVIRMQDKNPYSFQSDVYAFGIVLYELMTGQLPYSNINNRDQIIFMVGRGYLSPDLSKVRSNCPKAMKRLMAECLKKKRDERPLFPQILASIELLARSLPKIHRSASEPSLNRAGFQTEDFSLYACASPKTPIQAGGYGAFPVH
Sequence of UniProt Q9C098 (whole entry, looked up): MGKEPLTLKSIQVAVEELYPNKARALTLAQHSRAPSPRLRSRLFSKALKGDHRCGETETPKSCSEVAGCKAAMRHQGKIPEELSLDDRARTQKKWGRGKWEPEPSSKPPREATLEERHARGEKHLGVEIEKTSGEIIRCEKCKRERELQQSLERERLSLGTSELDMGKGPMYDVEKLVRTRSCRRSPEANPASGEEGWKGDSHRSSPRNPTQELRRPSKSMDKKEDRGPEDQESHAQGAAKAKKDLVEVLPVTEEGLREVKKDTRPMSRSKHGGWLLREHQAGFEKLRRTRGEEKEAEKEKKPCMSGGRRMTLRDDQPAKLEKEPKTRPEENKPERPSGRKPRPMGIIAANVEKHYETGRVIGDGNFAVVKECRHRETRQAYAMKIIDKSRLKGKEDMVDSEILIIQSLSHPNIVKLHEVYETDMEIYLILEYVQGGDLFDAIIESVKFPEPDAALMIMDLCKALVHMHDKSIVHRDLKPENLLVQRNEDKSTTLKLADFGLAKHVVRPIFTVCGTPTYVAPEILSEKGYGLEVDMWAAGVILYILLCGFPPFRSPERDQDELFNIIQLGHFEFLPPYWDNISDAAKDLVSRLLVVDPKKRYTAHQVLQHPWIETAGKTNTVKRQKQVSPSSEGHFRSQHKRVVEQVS
Sequence of UniProt Q13546 (whole entry, looked up): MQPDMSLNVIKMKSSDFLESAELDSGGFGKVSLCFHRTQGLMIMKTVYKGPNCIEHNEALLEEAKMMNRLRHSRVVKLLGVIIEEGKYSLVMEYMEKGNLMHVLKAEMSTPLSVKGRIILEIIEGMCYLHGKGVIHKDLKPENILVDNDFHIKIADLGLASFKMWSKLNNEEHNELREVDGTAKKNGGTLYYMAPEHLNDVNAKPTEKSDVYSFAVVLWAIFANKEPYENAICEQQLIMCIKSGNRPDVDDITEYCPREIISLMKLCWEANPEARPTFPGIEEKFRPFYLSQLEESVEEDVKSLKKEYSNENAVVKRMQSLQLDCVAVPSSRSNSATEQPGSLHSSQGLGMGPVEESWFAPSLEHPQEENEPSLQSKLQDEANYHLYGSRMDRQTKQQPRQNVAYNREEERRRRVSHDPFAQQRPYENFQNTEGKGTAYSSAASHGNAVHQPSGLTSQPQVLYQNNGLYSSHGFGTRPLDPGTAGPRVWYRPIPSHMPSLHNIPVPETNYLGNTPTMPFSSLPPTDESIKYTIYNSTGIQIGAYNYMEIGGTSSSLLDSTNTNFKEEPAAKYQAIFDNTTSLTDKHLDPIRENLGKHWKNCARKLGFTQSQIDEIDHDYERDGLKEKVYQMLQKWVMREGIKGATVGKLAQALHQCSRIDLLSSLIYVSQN
Sequence of UniProt Q15418 (whole entry, looked up): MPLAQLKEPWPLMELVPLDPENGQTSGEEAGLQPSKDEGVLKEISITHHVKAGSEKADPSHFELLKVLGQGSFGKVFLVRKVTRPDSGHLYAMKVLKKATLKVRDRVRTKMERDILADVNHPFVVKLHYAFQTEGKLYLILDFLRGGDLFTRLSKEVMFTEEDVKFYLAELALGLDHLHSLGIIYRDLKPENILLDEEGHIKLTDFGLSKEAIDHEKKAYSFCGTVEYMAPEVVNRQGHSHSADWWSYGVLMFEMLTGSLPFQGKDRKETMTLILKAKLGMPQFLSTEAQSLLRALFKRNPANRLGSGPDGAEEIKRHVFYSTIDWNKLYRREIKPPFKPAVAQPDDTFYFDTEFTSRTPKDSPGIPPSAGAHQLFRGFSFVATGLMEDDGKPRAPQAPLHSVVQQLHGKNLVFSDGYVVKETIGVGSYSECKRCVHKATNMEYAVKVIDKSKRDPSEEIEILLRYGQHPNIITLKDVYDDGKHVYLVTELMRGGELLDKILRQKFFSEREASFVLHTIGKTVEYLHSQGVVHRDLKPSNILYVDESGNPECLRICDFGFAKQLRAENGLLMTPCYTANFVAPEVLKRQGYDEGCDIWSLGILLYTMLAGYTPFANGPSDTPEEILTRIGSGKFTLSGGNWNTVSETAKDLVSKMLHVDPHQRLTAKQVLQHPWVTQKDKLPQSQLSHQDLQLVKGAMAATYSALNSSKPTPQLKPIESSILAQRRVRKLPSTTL

Sample 1
SMILES: N#Cc1cnc2cnc(NCc3cccnc3)cc2c1Nc1ccc(F)c(Cl)c1
Observed: enzyme activity
Mode: inhibitor
Concentration: 0.5 µM
Baseline: control
Endpoint: remaining activity
NUAK family SNF1-like kinase 1 (NUAK1, Homo sapiens, UniProt O60285): 103%
Protein kinase C gamma type (PRKCG, Homo sapiens, UniProt P05129): 111%
Protein kinase C epsilon type (PRKCE, Homo sapiens, UniProt Q02156): 101%
SRSF protein kinase 3 (SRPK3, Homo sapiens, UniProt Q9UPE1): 96.4%
Ribosomal protein S6 kinase beta-1 (RPS6KB1, Homo sapiens, UniProt P23443): 89.4%
Ephrin type-A receptor 7 (EPHA7, Homo sapiens, UniProt Q15375): 83.7%
Ephrin type-B receptor 2 (EPHB2, Homo sapiens, UniProt P29323): 97.4%
Beta-adrenergic receptor kinase 1 (GRK2, Homo sapiens, UniProt P25098): 95.7%
Fibroblast growth factor receptor 4 (FGFR4, Homo sapiens, UniProt P22455): 92.6%
Macrophage colony-stimulating factor 1 receptor (CSF1R, Homo sapiens, UniProt P07333): 96.3%
Aurora kinase C (AURKC, Homo sapiens, UniProt Q9UQB9): 91.8%
G protein-coupled receptor kinase 6 (GRK6, Homo sapiens, UniProt P43250): 106%
Myosin light chain kinase, smooth muscle (MYLK, Homo sapiens, UniProt Q15746): 105%
Ribosomal protein S6 kinase alpha-1 (RPS6KA1, Homo sapiens, UniProt Q15418): 94.6%
Receptor-type tyrosine-protein kinase FLT3 (FLT3, Homo sapiens, UniProt P36888): 83.6%
Serine/threonine-protein kinase pim-2 (PIM2, Homo sapiens, UniProt Q9P1W9): 101%
Serine/threonine-protein kinase Sgk1 (SGK1, Homo sapiens, UniProt O00141): 93.2%
Serine/threonine-protein kinase PAK 2 (PAK2, Homo sapiens, UniProt Q13177): 66.6%
Tyrosine-protein kinase CSK (CSK, Homo sapiens, UniProt P41240): 95.2%

Sample 2
Species: human
Medium: microsomes or S9
Concentration: 2 µM
Time: 0.5 h
Endpoint: remaining compound
Cn1cc(-c2ccc(=O)n(CC3CN(c4ncc(OCCN5CCCC5)cn4)CCO3)n2)cn1 (stereo not drawn): 97.9%
CC1(C)Cc2nc(N3CCCC3)c(C#N)cc2CO1: 42.9%
COc1nccnc1Oc1cc(F)c(CN2CCCC2)c(Cl)c1: 98.2%
Cc1cc(C(=O)NCCS(=O)(=O)N(C)C)cnc1C: 96.8%
N#Cc1cccc(Nc2cccc3c2CN(c2cccc(C(=O)O)c2)C3=O)c1: 58%
COc1cc(=O)n2c(c1C(=O)Nc1ccc(Cl)c(C)c1)CCCC2: 48.5%
CC(C)Cn1c(=O)c(N2CCN(S(=O)(=O)Cc3ccccc3)CC2)nc2ccncc21: 12.5%
CC1(C)CC(=O)c2c(O)cc(OCC(=O)N3CCN(C(=O)C4COc5ccccc5O4)CC3)cc2O1 (stereo not drawn): 19.7%
COc1cc(Br)c(S(=O)(=O)NCCOc2ccc(C(C)(C)C)cc2)cc1OC: 1.66%
CCOC1CC(OC(=O)c2csc(-c3ccco3)n2)C12CCC2 (stereo not drawn): 0.0164%
CCOC(=O)c1ccc(NC(=O)N(Cc2ccc3c(c2)OCO3)C2CCN(CC)CC2)cc1: 90.6%
Cc1nn(-c2nnn(CC(=O)O)n2)c(C)c1Br: 79.2%
O=c1c2ccccc2nc(-c2ccco2)n1-c1nc2ccccc2s1: > 99%

Sample 3
Structure (SMILES): CCCOc1ccc([C@H]2[C@H](C(=O)O)[C@@H](c3ccc4c(c3)OCO4)CN2CC(=O)Nc2c(CC)cccc2CC)cc1
Method: competition with immobilised ligand
Concentration: 1 µM
Endpoint: remaining binding
Macrophage-stimulating protein receptor (MST1R, Homo sapiens, UniProt Q04912); cell-free assay: 86%
Ephrin type-A receptor 4 (EPHA4, Homo sapiens, UniProt P54764); cell-free assay: 97%
Serine/threonine-protein kinase DCLK3 (DCLK3, Homo sapiens, UniProt Q9C098); cell-free assay: 100%
Serine/threonine-protein kinase B-raf (BRAF, Homo sapiens, UniProt P15056, V600E); cell-free assay: 76%
Rho-associated protein kinase 2 (ROCK2, Homo sapiens, UniProt O75116); cell-free assay: 69%
Phosphatidylinositol 4-phosphate 3-kinase C2 domain-containing subunit beta (PIK3C2B, Homo sapiens, UniProt O00750); cell-free assay: 92%
Casein kinase I isoform gamma-3 (CSNK1G3, Homo sapiens, UniProt Q9Y6M4); cell-free assay: 100%
Calcium/calmodulin-dependent protein kinase type II subunit delta (CAMK2D, Homo sapiens, UniProt Q13557); cell-free assay: 93%
Bone morphogenetic protein receptor type-1A (BMPR1A, Homo sapiens, UniProt P36894); binding: 100%
BDNF/NT-3 growth factors receptor (NTRK2, Homo sapiens, UniProt Q16620); cell-free assay: 85%
Tyrosine-protein kinase JAK1, JH2 (JAK1, Homo sapiens, UniProt P23458); cell-free assay: 94%
Myosin light chain kinase family member 4 (MYLK4, Homo sapiens, UniProt Q86YV6); cell-free assay: 75%
Leucine-rich repeat serine/threonine-protein kinase 2 (LRRK2, Homo sapiens, UniProt Q5S007, G2019S); cell-free assay: 91%
Mast/stem cell growth factor receptor Kit (KIT, Homo sapiens, UniProt P10721, D816H); cell-free assay: 72%
Receptor-interacting serine/threonine-protein kinase 1 (RIPK1, Homo sapiens, UniProt Q13546); cell-free assay: 88%

Sample 4
Organism: Sarcocystis neurona
Observed: parasite growth
Concentration: 10 µM
Time: 96 h
Endpoint: inhibition
CS(=O)(=O)OCCCCOS(C)(=O)=O: -16.1%
Cc1ncc([N+](=O)[O-])n1CC(O)CCl (stereo not drawn): -7.4%
CN1CCN(C2=Nc3cc(F)ccc3Cc3ccccc32)CC1: -5.9%
C[C@H]1COc2c(C3(N)CC3)c(F)cc3c(=O)c(C(=O)O)cn1c23: -10.2%
CC(=O)S[C@@H]1CC2=CC(=O)CC[C@]2(C)[C@H]2CC[C@@]3(C)[C@@H](CC[C@@]34CCC(=O)O4)[C@H]12: -2.8%
CN(C)CCOC(C)(c1ccccc1)c1ccccn1 (stereo not drawn): -16%
Cc1cccc(C)c1NC(=O)C1CCCCN1C (stereo not drawn): -7.3%
CN(C)[C@@H]1C(O)=C(C(=O)NCN2CCCC2)C(=O)[C@@]2(O)C(O)=C3C(=O)c4c(O)cccc4[C@@](C)(O)[C@H]3C[C@@H]12: -12%
CC(=O)Nc1ccc(CC(=O)O)cc1: -13.7%
CS(=O)(=O)c1ccc(C2=C(c3ccccc3)C(=O)OC2)cc1: -1.7%
CC(C)C[C@H](NC(=O)[C@@H](O)[C@H](N)Cc1ccccc1)C(=O)O: -15.9%
CCN1CCC[C@H]1CNC(=O)c1cc(S(N)(=O)=O)ccc1OC: -10.9%
CNCC[C@@H](Oc1ccccc1C)c1ccccc1: -13.5%
C[C@]12C[C@H](O)[C@H]3[C@@H](CCC4=CC(=O)CC[C@@]43C)[C@@H]1CC[C@@H]2C(=O)CO: -3.8%
COc1ccc(Cl)cc1C(=O)NCCc1ccc(S(=O)(=O)NC(=O)NC2CCCCC2)cc1: -9.1%
Nc1c2c(nc3c1CCC3)CCCC2: -2.1%

A few entries again (sample 1):
Ephrin type-A receptor 7 (EPHA7, Homo sapiens, UniProt Q15375): 83.7%
Ephrin type-B receptor 2 (EPHB2, Homo sapiens, UniProt P29323): 97.4%
Beta-adrenergic receptor kinase 1 (GRK2, Homo sapiens, UniProt P25098): 95.7%
Fibroblast growth factor receptor 4 (FGFR4, Homo sapiens, UniProt P22455): 92.6%
Macrophage colony-stimulating factor 1 receptor (CSF1R, Homo sapiens, UniProt P07333): 96.3%
Aurora kinase C (AURKC, Homo sapiens, UniProt Q9UQB9): 91.8%
G protein-coupled receptor kinase 6 (GRK6, Homo sapiens, UniProt P43250): 106%
Myosin light chain kinase, smooth muscle (MYLK, Homo sapiens, UniProt Q15746): 105%
Ribosomal protein S6 kinase alpha-1 (RPS6KA1, Homo sapiens, UniProt Q15418): 94.6%
Receptor-type tyrosine-protein kinase FLT3 (FLT3, Homo sapiens, UniProt P36888): 83.6%
